Published values pooled from the literature.
Every numbered part comes from another study and shows a few of its results, in no order. “And” joins repeats or separate records; there may be more than shown.
UniProt O75676, sequence (whole entry, looked up): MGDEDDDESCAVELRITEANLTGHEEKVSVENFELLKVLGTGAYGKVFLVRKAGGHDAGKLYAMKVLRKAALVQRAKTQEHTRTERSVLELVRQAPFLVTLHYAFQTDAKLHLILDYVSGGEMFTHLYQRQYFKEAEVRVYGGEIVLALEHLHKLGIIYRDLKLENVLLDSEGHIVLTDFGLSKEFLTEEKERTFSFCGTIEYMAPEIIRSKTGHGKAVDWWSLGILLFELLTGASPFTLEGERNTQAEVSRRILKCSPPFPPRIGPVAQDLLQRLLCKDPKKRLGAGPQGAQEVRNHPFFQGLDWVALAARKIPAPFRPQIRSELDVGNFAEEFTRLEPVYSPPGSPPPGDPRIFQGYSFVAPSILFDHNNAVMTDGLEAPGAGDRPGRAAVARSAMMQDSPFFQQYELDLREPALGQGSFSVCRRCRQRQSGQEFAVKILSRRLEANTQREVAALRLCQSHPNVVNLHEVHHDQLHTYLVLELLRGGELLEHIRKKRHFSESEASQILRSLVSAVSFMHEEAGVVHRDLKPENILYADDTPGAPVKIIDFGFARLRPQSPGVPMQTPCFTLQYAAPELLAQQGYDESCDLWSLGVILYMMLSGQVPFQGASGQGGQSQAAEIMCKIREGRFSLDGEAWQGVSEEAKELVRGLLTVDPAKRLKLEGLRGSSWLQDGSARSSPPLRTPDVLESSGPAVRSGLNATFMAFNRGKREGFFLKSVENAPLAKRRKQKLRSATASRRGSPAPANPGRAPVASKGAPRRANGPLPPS
UniProt Q8WXR4, sequence (whole entry, looked up): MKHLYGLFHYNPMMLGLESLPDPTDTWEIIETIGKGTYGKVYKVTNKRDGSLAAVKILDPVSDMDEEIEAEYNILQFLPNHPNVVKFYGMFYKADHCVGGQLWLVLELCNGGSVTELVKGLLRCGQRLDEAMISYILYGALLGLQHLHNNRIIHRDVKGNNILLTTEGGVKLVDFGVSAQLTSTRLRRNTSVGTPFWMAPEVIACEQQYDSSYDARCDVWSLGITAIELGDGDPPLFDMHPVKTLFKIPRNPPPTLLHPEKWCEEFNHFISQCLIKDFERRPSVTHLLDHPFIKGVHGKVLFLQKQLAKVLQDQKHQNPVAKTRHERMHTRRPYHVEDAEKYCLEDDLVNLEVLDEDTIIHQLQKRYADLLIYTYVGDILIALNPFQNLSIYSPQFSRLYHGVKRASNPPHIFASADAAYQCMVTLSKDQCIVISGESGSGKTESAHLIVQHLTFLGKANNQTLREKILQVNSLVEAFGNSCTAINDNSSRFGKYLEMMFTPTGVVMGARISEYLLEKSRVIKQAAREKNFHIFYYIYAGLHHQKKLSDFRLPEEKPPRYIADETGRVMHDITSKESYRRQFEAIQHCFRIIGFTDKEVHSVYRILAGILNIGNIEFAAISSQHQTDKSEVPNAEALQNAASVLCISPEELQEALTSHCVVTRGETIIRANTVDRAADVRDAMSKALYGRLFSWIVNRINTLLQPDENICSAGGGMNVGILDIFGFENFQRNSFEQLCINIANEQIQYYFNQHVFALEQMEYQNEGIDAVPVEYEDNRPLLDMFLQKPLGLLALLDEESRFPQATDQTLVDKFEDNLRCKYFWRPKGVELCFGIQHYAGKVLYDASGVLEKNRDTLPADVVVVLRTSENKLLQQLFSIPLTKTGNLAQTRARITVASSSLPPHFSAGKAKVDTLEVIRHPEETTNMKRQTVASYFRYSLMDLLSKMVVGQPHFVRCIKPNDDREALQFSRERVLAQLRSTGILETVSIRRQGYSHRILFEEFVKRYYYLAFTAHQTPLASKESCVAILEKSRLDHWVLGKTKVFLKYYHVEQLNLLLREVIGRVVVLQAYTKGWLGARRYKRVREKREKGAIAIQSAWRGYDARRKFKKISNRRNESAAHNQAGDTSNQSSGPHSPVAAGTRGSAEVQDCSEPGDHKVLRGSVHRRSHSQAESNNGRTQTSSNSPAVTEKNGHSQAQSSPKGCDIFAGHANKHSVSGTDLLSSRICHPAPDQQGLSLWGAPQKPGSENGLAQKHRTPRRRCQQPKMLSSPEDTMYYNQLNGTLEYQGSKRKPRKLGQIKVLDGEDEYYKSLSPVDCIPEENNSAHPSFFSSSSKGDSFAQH
UniProt P06493, sequence (whole entry, looked up): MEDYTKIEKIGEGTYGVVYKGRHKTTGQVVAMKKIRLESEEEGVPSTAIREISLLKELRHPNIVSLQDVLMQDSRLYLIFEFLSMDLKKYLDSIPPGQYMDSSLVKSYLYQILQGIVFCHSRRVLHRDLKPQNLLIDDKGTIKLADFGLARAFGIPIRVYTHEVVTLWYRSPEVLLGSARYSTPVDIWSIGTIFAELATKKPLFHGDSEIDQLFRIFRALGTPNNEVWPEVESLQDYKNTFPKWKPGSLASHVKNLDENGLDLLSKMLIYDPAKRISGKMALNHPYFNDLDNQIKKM

Set 1
Compound: CN([C@@H]1CCc2c(CC(=O)O)c3ccccc3n2C1)S(=O)(=O)c1ccc(F)cc1
Method: competition with immobilised ligand
Tested at: 1 µM
Measurement: remaining binding
CLK2 (Homo sapiens, UniProt P49760); cell-free assay: 94%
FLT1 (Homo sapiens, UniProt P17948); cell-free assay: 100%
Macrophage colony-stimulating factor 1 receptor, autoinhibited (CSF1R, Homo sapiens, UniProt P07333); cell-free assay: 100%
CAMKK2 (Homo sapiens, UniProt Q96RR4); cell-free assay: 100%
Myosin-IIIb (MYO3B, Homo sapiens, UniProt Q8WXR4); binding: 100%
WEE2 (Homo sapiens, UniProt P0C1S8); cell-free assay: 100%
MKNK1 (Homo sapiens, UniProt Q9BUB5); cell-free assay: 93%
CAMK2B (Homo sapiens, UniProt Q13554); cell-free assay: 99%
STK38L (Homo sapiens, UniProt Q9Y2H1); cell-free assay: 83%

Set 2
Structure (SMILES): CN1CCN(C(=O)c2ccc(NC(=O)Nc3ccc(N(C)c4ccnc(Nc5ccc(CS(C)(=O)=O)cc5)n4)cc3)cc2)CC1
Measurement: remaining binding
ABL1 (Homo sapiens, UniProt P00519, F317L); binding; 1 µM: 34%
FLT3 ITD; KINOMEscan; 1000 nM; reference: control: 0.3%
EPHB6 (Homo sapiens, UniProt O15197); binding, competition with immobilised ligand; 1 µM: 4.3%
Ribosomal protein S6 kinase alpha-4, N-terminal kinase domain (RPS6KA4, Homo sapiens, UniProt O75676); binding, competition with immobilised ligand; 1 µM: 82%
RET (Homo sapiens, UniProt P07949, M918T); binding; 1 µM: 0.2%
PIK3CD (Homo sapiens, UniProt O00329); binding; 1 µM: 100%
CDKL3 (Homo sapiens, UniProt Q8IVW4); binding, competition with immobilised ligand; 1 µM: 72%
STK38 (Homo sapiens, UniProt Q15208); binding; 1 µM: 54%

Set 3
Target: DNA polymerase theta, ATPase domain (POLQ, Homo sapiens, UniProt O75417)
UniProt O75417, sequence (whole entry, unmodified, looked up): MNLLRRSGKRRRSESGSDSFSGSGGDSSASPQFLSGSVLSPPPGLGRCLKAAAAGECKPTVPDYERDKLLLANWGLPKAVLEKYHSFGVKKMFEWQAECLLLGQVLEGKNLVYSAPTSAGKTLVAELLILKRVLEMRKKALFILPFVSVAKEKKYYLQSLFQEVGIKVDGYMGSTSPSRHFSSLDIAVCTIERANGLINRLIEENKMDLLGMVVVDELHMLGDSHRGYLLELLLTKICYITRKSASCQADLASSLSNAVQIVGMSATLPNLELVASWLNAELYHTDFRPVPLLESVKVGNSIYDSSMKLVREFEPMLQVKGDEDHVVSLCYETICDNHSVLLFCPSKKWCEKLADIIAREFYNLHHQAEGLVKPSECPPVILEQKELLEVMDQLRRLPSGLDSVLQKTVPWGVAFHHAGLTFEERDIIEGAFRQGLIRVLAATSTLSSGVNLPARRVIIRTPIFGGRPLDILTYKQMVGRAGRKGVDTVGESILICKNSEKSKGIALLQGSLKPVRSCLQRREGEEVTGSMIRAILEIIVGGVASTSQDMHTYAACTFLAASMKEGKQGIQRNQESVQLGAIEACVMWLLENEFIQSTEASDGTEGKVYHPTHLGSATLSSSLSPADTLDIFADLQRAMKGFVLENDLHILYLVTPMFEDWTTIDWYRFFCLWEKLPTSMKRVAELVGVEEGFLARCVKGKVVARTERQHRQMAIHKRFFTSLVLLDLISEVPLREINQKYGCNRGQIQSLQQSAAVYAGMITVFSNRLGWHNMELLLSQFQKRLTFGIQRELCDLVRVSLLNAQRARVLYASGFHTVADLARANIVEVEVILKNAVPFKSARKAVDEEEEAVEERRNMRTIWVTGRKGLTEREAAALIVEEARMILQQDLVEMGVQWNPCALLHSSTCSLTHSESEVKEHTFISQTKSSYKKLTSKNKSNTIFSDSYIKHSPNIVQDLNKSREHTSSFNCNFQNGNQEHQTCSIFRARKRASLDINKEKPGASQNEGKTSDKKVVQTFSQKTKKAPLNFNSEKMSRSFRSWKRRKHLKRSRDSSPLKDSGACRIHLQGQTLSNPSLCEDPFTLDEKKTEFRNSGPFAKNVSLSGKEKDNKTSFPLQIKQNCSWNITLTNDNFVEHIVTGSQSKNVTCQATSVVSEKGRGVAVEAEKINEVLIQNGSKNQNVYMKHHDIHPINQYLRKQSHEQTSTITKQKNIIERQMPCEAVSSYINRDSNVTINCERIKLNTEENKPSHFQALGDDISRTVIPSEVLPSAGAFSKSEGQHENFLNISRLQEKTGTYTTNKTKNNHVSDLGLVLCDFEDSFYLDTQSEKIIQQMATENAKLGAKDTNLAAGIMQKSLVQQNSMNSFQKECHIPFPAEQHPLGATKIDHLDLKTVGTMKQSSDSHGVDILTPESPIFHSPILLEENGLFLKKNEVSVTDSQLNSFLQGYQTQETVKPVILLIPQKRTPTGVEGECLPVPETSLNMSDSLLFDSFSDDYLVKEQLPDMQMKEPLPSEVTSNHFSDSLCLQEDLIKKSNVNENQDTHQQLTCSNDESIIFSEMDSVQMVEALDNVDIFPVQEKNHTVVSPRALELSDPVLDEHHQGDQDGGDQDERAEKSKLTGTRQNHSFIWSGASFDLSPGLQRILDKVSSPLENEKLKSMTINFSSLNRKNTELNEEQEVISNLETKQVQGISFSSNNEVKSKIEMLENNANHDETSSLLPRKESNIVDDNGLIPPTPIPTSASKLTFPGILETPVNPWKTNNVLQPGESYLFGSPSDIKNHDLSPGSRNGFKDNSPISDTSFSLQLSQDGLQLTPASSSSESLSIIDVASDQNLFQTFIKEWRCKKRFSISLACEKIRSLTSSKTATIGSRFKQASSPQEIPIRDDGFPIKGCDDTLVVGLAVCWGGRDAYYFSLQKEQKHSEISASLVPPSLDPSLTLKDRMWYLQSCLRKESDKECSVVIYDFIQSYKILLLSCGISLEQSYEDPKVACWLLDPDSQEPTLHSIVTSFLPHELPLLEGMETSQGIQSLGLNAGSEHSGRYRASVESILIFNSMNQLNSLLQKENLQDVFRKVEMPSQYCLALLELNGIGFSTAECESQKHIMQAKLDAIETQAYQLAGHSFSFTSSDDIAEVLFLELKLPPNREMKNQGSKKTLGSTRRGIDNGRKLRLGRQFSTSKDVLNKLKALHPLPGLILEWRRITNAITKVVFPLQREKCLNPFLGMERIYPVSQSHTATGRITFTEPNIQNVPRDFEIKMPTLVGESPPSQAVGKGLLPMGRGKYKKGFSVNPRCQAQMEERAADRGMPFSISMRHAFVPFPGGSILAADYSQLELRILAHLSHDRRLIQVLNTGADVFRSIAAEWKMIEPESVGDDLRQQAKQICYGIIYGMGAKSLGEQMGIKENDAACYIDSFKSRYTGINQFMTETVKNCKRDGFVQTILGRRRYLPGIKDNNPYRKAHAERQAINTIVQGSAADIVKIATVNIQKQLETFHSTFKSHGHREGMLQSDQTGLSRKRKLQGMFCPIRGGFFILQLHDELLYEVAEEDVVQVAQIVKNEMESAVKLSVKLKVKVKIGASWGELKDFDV
Read-out: enzyme activity
Mode: inhibitor
Tested at: 77 µM
Reference: untreated
Measurement: remaining activity
CC1=C(CC(=O)O)c2cc(F)ccc2/C1=C\c1ccc(S(C)(=O)=O)cc1: 89.6%
CN1CCC(=C2c3ccccc3CCc3sccc32)CC1: 101% and 102%
N#C/C(=C\c1ccc(O)c(O)c1)C(=O)NCc1ccccc1: 97.1%
Clc1ccc2c(c1)N=C(N1CCNCC1)c1ccccc1N2: 109%
CC(C)(C=O)Cc1cc(C(C)(C)C)c(O)c(C(C)(C)C)c1: 110%
Nc1nc(CC(=O)Nc2ccc(CCNC[C@H](O)c3ccccc3)cc2)cs1: 104%
CC(=O)OCOC(=O)CN(CC(=O)OCOC(C)=O)c1ccccc1OCCOc1ccccc1N(CC(=O)OCOC(C)=O)CC(=O)OCOC(C)=O: 91.9%
Nc1ncnc2c1c(-c1cccc(OCc3ccccc3)c1)cn2[C@H]1C[C@@H](CN2CCC2)C1: 89.8%
C[C@@H]1[C@H](O)[C@@H](C)/C=C/C=C/C=C/C=C/C=C/C=C/C=C/[C@H](O[C@@H]2O[C@H](C)[C@@H](O)[C@H](N)[C@@H]2O)C[C@@H]2O[C@](O)(C[C@@H](O)C[C@@H](O)[C@H](O)CC[C@@H](O)C[C@@H](O)CC(=O)O[C@H]1C)C[C@H](O)[C@H]2C(=O)O: 88.6% and 90.8%

Set 4
Compound: COc1cc2ncnc(Nc3ccc(Oc4ccccc4)cc3)c2cc1OC
Read-out: enzyme activity
Mode: inhibitor
Tested at: 0.5 µM
Reference: control
Measurement: remaining activity
NEK3 (Homo sapiens, UniProt P51956): 98.4%
GRK4 (Homo sapiens, UniProt P32298): 97.1%
Myosin-IIIb (MYO3B, Homo sapiens, UniProt Q8WXR4): 103%
ROCK1 (Homo sapiens, UniProt Q13464): 102%
TLK2 (Homo sapiens, UniProt Q86UE8): 107%
RPS6KA4 (Homo sapiens, UniProt O75676): 94.4%
PRKG2 (Homo sapiens, UniProt Q13237): 98.3%
MARK4 (Homo sapiens, UniProt Q96L34): 105%
MINK1 (Homo sapiens, UniProt Q8N4C8): 101%
AKT2 (Homo sapiens, UniProt P31751): 99.4%
PAK3 (Homo sapiens, UniProt O75914): 98.1%
MAPK14 (Homo sapiens, UniProt Q16539): 103%
Cyclin-dependent kinase 1, with cyclin A (CDK1, Homo sapiens, UniProt P06493): 92.2%
DCLK2 (Homo sapiens, UniProt Q8N568): 99.5%

Repeated from above (set 4):
MARK4 (Homo sapiens, UniProt Q96L34): 105%
MINK1 (Homo sapiens, UniProt Q8N4C8): 101%
